# Published values pooled from the literature.
# Each numbered part is a random draw from the data of one study; scales do not carry over between parts.

# Series 1
# Target: Sal-like protein 4, full length isoform A (SALL4, Homo sapiens, UniProt Q9UJQ4, residues 1-1053)
# Chain of UniProt Q9UJQ4 (whole entry, looked up): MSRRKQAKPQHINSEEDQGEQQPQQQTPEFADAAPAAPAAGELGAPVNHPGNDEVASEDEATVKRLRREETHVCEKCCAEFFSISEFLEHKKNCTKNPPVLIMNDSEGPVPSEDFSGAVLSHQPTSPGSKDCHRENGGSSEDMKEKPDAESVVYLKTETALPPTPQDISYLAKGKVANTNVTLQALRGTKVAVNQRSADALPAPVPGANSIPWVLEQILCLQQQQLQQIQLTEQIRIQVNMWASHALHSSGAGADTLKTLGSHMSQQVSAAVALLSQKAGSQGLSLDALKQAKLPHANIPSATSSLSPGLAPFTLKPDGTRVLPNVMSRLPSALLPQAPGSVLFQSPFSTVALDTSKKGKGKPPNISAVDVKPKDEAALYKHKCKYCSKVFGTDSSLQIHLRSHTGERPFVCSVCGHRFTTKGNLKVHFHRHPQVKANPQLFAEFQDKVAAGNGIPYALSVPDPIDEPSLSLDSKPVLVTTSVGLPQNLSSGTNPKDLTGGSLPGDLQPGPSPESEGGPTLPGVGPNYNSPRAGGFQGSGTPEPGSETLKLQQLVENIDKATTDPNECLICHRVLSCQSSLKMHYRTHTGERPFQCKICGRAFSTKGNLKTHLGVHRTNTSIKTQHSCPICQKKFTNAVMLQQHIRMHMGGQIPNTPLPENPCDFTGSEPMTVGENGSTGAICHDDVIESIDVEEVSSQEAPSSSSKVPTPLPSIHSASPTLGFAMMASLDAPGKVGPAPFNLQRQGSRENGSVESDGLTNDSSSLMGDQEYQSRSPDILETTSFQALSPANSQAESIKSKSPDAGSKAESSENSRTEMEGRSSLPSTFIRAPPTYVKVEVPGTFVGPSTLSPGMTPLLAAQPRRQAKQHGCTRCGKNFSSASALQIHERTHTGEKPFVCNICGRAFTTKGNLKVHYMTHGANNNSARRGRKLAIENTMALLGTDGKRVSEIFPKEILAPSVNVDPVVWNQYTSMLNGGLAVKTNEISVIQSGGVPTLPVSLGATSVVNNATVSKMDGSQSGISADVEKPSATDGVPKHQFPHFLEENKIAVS
# Method: universal PBM
# Molecule type: double-stranded DNA, one strand shown
# Matrix: in vitro
# Concentration: 600 nM
# Notes: 8-mer, flanks averaged, mean of replicates
# Reading: higher = stronger binding
Strand,E-score
AATCTCAA,0.0604
TAAGAATA,0.259
GGATTGGA,-0.0163
CGTCACGC,-0.174
AAGTTTAG,0.133
CTCGGCCA,-0.172
CTAAACCC,-0.0258
CTGTCGGA,-0.0851

# Series 2
# Target: Ras GTPase-activating protein-binding protein 1, RRM domain (G3BP1, Homo sapiens, UniProt Q13283)
# Chain of UniProt Q13283 (whole entry, looked up): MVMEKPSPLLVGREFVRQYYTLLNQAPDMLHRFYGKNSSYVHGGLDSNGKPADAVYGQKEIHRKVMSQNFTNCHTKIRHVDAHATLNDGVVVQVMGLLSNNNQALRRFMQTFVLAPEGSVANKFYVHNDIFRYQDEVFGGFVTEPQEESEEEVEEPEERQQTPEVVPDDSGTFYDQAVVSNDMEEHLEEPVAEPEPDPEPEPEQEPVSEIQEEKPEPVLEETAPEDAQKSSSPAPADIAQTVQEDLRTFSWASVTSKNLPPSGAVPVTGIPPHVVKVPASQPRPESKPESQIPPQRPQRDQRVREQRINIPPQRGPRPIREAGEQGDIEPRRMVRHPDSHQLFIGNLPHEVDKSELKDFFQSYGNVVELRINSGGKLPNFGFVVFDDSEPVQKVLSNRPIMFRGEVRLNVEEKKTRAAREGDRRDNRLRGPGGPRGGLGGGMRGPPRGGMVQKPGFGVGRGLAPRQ
# Method: RNA Bind-n-Seq
# Molecule type: RNA
# Matrix: in vitro
# Concentration: 1 µM
# Notes: whole 134-nt RNA, ends assumed
# Added: 150 mM KCl
# Relative to: input library
# Reading: higher = stronger binding
Strand,log2 enrichment
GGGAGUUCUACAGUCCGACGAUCCCUGUGCUACACAUCGUAUGUACCGAAUCGGGUUUUUUUGGUUUUUUUGGUUUUUUUGGGAAAGUAUUAUGUUACGCCGUUCGGAUCUGCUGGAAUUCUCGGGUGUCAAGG,-0.221
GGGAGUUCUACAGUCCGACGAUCAGUCCUGUGCUACACAUCGUAUGUACCGAAUCAAAUUUAAACCCCCCCAAACCCAAAAAAGUAUUAUGUUACGCCGUUCGGAUCUGCACUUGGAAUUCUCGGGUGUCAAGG,-0.272
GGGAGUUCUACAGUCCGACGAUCUGGCCCUGGUGGCAUGCGGGGAAGAAGAGGUGGCCUCAUGGAUCGUGGUGGUCCCGGUGGAAUGUUCAGAGGUGGCCGUGGUGGAGACAGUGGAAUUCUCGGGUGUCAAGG,0.972
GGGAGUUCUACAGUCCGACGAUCAAGUCCUGUGCUACACAUCGUAUGUACCGAAUCGGGGAAAGGGGAAAGGGAAAGGGGAAAGUAUUAUGUUACGCCGUUCGGAUCUGCACUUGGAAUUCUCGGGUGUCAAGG,0.438
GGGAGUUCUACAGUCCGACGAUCAAGUCCUGUGCUACACAUCGUAUGUACCGAAUCGGGUGGGAAAAAAAGGGUUUGGGAAAGUAUUAUGUUACGCCGUUCGGAUCUGCACUUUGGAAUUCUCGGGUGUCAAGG,0.659
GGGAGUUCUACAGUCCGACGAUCUUGUUCUGGCAUAAACAUAACAUUGAGAAGUCCCUUGCUGAUCUCCCUAAUUUCACUCCCUUUCCGGAUGAGUGGACAGUGGAAGAUAAAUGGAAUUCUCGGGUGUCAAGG,-0.0736
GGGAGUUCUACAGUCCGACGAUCCUGUGCUACACAUCGUAUGUACCGAAUCGGGCCCCCCCGGGGCCCCCCCGGGCCCCCCCGGGAAAGUAUUAUGUUACGCCGUUCGGAUCUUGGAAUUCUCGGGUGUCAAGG,-0.573
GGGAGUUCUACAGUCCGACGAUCUCAAGUCCUGUGCUACACAUCGUAUGUACCGAAUCGGUUUGGAGGAAAAAAAGGAAAGUAUUAUGUUACGCCGUUCGGAUCUGCACUUCCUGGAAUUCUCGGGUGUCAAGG,-0.127

# Series 3
# Target: PABPC1L2, full length, GST fusion (mouse, UniProt A0ABA7IW68)
# Method: RNAcompete
# Molecule type: RNA
# Matrix: in vitro
# Concentration: 20 nM
# Notes: 7-mer, probes averaged, single round
# Relative to: mean of 7-mers
# Reading: higher = stronger binding
# Target sequence (chain): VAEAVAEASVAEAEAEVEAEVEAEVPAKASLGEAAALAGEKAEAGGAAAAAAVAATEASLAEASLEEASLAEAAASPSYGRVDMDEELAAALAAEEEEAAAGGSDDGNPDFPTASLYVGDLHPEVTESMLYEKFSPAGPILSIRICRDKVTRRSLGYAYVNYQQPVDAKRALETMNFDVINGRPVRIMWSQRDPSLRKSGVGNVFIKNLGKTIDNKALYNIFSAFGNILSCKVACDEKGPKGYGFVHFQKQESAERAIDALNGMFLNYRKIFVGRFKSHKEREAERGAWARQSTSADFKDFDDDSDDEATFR
Strand,7-mer Z-score
CGACAGU,0.0678
CAUUUCC,-0.416
CAGAUCA,0.186
UCCGGCA,-0.175
CCCUUGG,-0.246
UACGUCU,-0.34
UCAAGUG,-0.193
UAAAAAG,12.3

# Other studies, line by line
Compound,target,assay,conditions,scale,measurement,value
COc1cc(C(=O)N2CCC(N3CCN(C)CC3)CC2)ccc1Nc1ncc2c(n1)N(C)c1ccccc1C(=O)N2C,NDR2,KINOMEscan,10 µM,"relative to: DMSO control, lower = stronger binding",binding,100%
